Assay results pooled from the literature.
Parts stem from different laboratories: compare values within a part only. Substitutions count along the parent as printed.

Set 1
Target: Sal-like protein 4, full length isoform B (SALL4, Homo sapiens, UniProt Q9UJQ4-2, residues 1-616)
Technique: universal PBM
Molecule type: double-stranded DNA, one strand shown
Medium: in vitro
Concentration: not given
Notes: 8-mer, flanks averaged, mean of replicates
Reading: higher = stronger binding
| Sequence | E-score |
| --- | --- |
| CTCGGGTC | -0.213 |
| GCTGGACC | -0.28 |
| AGGACCAG | -0.24 |
| GGAACGCC | -0.247 |
| AATTACTC | 0.297 |
| TTGACCAA | 0.00613 |
| CGCCCAAC | -0.234 |
| GAAACAAC | -0.0949 |
| CAATCCCC | 0.0623 |
| GTGGCCAC | -0.108 |

Set 2
Target: Histone acetyltransferase KAT6A, winged helix 2, GST fusion (KAT6A, Homo sapiens, UniProt Q92794, residues 85-181)
Technique: protein binding microarray
Molecule type: double-stranded DNA, one strand shown
Medium: in vitro
Concentration: not given
Notes: 8-mer, flanks averaged, mean of 2 arrays, mostly near background
Reference: not given
Reading: higher = stronger binding
Residues (chain): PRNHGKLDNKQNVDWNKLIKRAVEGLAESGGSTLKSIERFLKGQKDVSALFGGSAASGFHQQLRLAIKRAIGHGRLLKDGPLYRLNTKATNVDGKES
| Sequence | E-score |
| --- | --- |
| AGCAGTTA | -0.0527 |
| ACGGGTCG | 0.12 |
| ATCCTTGG | -0.134 |
| CCTCCTAA | -0.0547 |
| ATGTATGA | -0.0378 |
| AGCGTGGA | -0.0532 |
| TACTTGAA | -0.103 |

Set 3
Target: CCND1, cyclin fold, Cln2 fusion (human)
Technique: yeast growth competition, sequencing
Medium: yeast
Notes: strong parent motif
Reference: not given
Reading: higher = stronger binding
Starting sequence: PKN2 docking peptide (human); VSAVRKLDFSDTM
| Variant | normalised enrichment score |
| --- | --- |
| VSATRKLDFSDTM [V4T] | 2.35 |
| VSAVRKSDFSDTM [L7S] | -0.0329 |
| VSAVRKLDFSDIM [T12I] | 5.4 |
| VSAVRKLYFSDTM [D8Y] | 2.12 |
| VSAVRKLDFSDPM [T12P] | 5.65 |
| VSAARKLDFSDTM [V4A] | 5.32 |
| VSAVRKLDRSDTM [F9R] | -0.0355 |
| VSAVRKLDFSGTM [D11G] | 5.34 |
| VSHVRKLDFSDTM [A3H] | 0.835 |
| VSAVRKLDFSWTM [D11W] | 3.59 |
| VSAVMKLDFSDTM [R5M] | 3.03 |

Single results of other studies
| Molecule | target | test | test system | setting | scale | measurement | result |
| --- | --- | --- | --- | --- | --- | --- | --- |
| PhoQ, residues 284 288 289 292 302 303 AGCYAI | PhoP, residues 12 14 15 18 19 NQFFI (Escherichia coli, UniProt P23836) | Sort-seq, measured: YFP reporter | E. coli | PhoQ-PhoP variant library, together with: 10 µM Mg2+ | reference: high Mg2+ state, higher = stronger signaling | fold induction | 2.73 |
